Experimental data collected from several papers.
Parts stem from different laboratories: compare values within a part only. Substitutions count along the parent as printed.

Set 1
Target: TAR DNA-binding protein 43, full length, His tag (TARDBP, Homo sapiens, UniProt Q13148, residues 1-414)
Method: RNA Bind-n-Seq
Molecule type: RNA
Matrix: in vitro
Concentration: 20 nM
Setting: 6-mer, flanks averaged, single round
With: 150 mM KCl
Baseline: input library
Reading: higher = stronger binding
Endpoint: 6-mer enrichment (R)
UUGCCA: 0.653
GCGAGA: 1.56
CGAUGA: 0.79
UAUGGC: 0.825
GACUCU: 0.619
ACCGUA: 0.635
CCCUGU: 0.667
AACGCG: 0.938
AUGUCU: 0.637
CUAUUA: 0.58
GAUGUC: 0.775
CAUAAU: 0.667
CGUCUC: 0.606

Set 2
Target: RNA binding protein fox-1 homolog 2, RRM domain, GST-SBP tag (RBFOX2, Homo sapiens, UniProt O43251-10, residues 100-194)
Method: RNA Bind-n-Seq
Molecule type: RNA
Matrix: in vitro
Concentration: 365 nM
Setting: natural RNA segment, single round, ends assumed
Baseline: no-protein control
Reading: higher = stronger binding
Endpoint: RBNS enrichment (R)
Target sequence (chain): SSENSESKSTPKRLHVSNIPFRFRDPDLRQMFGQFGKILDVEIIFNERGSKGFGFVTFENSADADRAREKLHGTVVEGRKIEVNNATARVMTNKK
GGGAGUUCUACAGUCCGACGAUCAGAUAGCUAAGUCCUAAUCUAUGGGUACAUUGUUGUGUCCCAAACCAAAAUUUUCCUUAUCCACAAUGUCCCUUCUGUCUCUUCCACUUUACAGUGGACUCGGCCACUGUUGGAAUUCUCGGGUGCCAA: 0.318
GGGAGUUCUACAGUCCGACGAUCUGUGAAUCUGUAUAUUAUUCUGAUGGAUACAGAUAAUGAUCUUUUCUCUUGUGAGGUAUCUUCAUUUAUGCACUGUCCAAAAAUAGCCAUGUGUAAGAGUCUUUCUGUAUUGGAAUUCUCGGGUGCCAA: 0.411
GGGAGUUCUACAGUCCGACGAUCUCAGUAUUUGAUUUUUCCAGUGUUUGUUUUUUAAAAAACUGACAGGUGCUACAUUUCUAUCUGUUGGUUUCAAUUCUGCCAUAUUUCAUGUCUAGCCUUUAGAGUGGCCAUGGAAUUCUCGGGUGCCAA: 0.678
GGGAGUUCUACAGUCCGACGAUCAACAUCCCUGUACCCCUUGACAGUUAUAAGCAUUUCUGCGUUAAACUUGAAGAUUCCAGAGAUUCCCCACGACCUAAUGAUCUAAGAAUGCAGAUUGGAUUCUUUGAUGUUGGAAUUCUCGGGUGCCAA: 0.899
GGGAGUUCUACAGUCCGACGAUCGUUCAGGCACUUCCCACCACCUUUGUGCCCCCUCUGGUUGUACUUUCCAGGUCCCUGCUUCUCACCUCCUCCAUCUUGCUUCGCCUUUCAAUAAACAGUUGAUGCAUACCUGGAAUUCUCGGGUGCCAA: 0.582
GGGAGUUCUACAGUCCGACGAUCAGGUGGUGUAUCGCCACCUGACUCCUUGUUUAAUGACAGAGGUCUGGGAUGUCACAGUCCAAAAGGAAAGUGCCUUUCUCCAUGGCUGGAGUAUGGAGUUUACCUUUGGAUGGAAUUCUCGGGUGCCAA: 0.211
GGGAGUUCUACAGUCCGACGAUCCUAGGUGAGUGUGCCAAGCUCAGGAUUCCAACUGGUGCCUCUGAGCUUCCCAAUCAAUACUUCCUGGAGCCAGCCCCACCCACCCCUGAGAACAGAGGUCAGACACAGCUUGGAAUUCUCGGGUGCCAA: 0.353
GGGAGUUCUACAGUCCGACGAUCUUUGCGGCAAAAUAAAGGCCUAUUCUACUCUUAUUUAAAGUGAAACACUGUAUACUUGUUUCUCUCCAAAGCGAAAUUAAGUAUUUAUAAUUUCAAUUGCCUCGAUAAGUUGGAAUUCUCGGGUGCCAA: 0.348

Set 3
Target: Sal-like protein 4, full length isoform A (SALL4, Homo sapiens, UniProt Q9UJQ4, residues 1-1053)
Chain of UniProt Q9UJQ4 (whole entry, looked up): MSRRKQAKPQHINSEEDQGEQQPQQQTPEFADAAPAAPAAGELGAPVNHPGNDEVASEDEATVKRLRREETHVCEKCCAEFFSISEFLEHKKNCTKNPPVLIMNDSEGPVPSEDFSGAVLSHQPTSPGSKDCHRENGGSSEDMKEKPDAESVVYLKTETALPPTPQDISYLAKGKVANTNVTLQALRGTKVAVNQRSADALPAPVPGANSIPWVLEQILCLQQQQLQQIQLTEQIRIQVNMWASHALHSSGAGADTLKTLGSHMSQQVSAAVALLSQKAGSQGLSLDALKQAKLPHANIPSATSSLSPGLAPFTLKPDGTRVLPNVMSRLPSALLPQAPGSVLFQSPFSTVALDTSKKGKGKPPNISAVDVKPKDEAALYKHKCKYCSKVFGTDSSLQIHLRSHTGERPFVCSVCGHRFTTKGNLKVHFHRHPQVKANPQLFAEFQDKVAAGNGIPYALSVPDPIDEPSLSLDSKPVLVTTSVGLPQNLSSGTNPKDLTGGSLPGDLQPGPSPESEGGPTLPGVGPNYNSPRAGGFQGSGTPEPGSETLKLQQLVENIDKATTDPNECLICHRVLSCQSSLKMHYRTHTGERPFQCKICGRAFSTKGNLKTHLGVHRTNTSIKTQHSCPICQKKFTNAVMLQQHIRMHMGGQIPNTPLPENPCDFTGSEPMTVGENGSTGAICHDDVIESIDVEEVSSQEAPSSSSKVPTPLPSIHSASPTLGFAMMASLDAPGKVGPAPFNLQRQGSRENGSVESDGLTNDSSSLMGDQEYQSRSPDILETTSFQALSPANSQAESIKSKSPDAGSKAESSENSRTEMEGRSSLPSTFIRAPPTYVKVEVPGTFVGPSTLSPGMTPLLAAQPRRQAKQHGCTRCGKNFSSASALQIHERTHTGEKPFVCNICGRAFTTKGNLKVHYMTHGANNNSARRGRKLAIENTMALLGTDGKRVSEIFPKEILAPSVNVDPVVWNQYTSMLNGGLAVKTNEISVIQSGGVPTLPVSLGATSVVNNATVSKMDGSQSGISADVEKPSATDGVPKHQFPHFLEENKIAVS
Method: universal PBM
Molecule type: double-stranded DNA, one strand shown
Matrix: in vitro
Concentration: 600 nM
Setting: 8-mer, flanks averaged, mean of replicates
Reading: higher = stronger binding
Endpoint: E-score
GAATATGA: 0.295
TGAATTAA: 0.312
CGAGCGCC: -0.423
CCTTGTCA: 0.217
GCTGAAGC: -0.175
CCTCCGGA: -0.293
AACACGCC: -0.197
CAATCAAC: 0.00283
CGCTGAGC: -0.177
ATGACGAC: -0.0255
AGACAATC: 0.0848
ACAGAGGG: -0.221
GGATCACA: 0.0305
CGATGCAA: -0.109
CGCTCCGC: -0.288
AAGCATTC: 0.115
AGATGAGA: -0.00417
ACTAAATC: 0.156
CTCCCGAG: -0.239
CCTCTGGA: -0.175
ACTAGGGG: -0.249
ATCCCTGG: -0.215

Set 4
Target: ABI1, truncated, D143A, DHFR fusion (Arabidopsis thaliana, UniProt P49597)
Method: DHFR PCA, dose-response
Matrix: yeast
Setting: Hill fit, mean, not affinity
With: (+)-ABA, dose series
Reading: lower = more sensitive
Endpoint: ABA EC50
Starting sequence: PYL1, truncated, DHFR fusion (Arabidopsis thaliana, UniProt Q8VZS8); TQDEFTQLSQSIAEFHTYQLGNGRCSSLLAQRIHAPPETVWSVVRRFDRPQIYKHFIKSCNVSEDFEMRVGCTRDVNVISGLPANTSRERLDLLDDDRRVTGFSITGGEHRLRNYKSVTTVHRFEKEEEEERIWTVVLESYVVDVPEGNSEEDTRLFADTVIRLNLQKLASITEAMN
S59V: 20.8 µM
R132I: 2.81 µM
I172E: 39.5 µM
C72P: 316 µM
E152A: 1.86 µM
T154G: 570 µM
G71A: 102 µM
P36F: 25.9 µM
E67M: 4.2 µM
V62S: 65.9 µM

Set 5
Target: CCNB1, cyclin fold, Cln2 fusion (human)
Method: yeast growth competition, sequencing
Matrix: yeast
Setting: strong parent motif
Baseline: not given
Reading: higher = stronger binding
Endpoint: normalised enrichment score
Starting sequence: PKN2 docking peptide (human); VSAVQKLDFSDTM
A3K: 0.284
S10R: 1.03
F9K: 0.318
M13D: 1.91
M13I: 2.1
L7G: -0.413
V4A: 0.535
V1P: 2.41
A3M: 0.576
K6D: -0.175
S2Y: 2.4
D8M: 1.69
V1L: 2.02
S10L: 0.909
S2H: 1.01
M13F: 1.54
V1W: 2.7
T12W: 2.45

Set 6
Target: Ras GTPase-activating protein-binding protein 1, RRM domain (G3BP1, Homo sapiens, UniProt Q13283)
Chain of UniProt Q13283 (whole entry, looked up): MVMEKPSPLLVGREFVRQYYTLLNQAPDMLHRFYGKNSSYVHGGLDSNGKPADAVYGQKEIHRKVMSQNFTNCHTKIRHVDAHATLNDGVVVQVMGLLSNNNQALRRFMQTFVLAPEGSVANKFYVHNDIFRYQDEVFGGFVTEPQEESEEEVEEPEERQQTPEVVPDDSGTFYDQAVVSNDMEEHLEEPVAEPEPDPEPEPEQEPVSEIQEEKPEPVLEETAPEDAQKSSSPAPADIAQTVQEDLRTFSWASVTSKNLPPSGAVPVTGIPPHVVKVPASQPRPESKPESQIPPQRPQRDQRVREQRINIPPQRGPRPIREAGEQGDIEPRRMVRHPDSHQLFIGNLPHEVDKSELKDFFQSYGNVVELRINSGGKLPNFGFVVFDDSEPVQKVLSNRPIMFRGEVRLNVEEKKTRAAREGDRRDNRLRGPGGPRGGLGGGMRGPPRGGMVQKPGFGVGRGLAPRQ
Method: RNA Bind-n-Seq
Molecule type: RNA
Matrix: in vitro
Concentration: 1 µM
Setting: whole 134-nt RNA, ends assumed
With: 150 mM KCl
Baseline: input library
Reading: higher = stronger binding
Endpoint: log2 enrichment
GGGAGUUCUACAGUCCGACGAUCUCCUGUGCUACACAUCGUAUGUACCGAAUCAAAGUGUGUGUGUAAAGUGUGUGUGUAAAAAAGUAUUAUGUUACGCCGUUCGGAUCUGCAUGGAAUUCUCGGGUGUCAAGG: -0.0923
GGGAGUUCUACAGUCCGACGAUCGCCACUGUUCACCAGUCCUACCCACACCAUGCCACACAGCUCCAUGCCCACCAGCCGCAGCCGGCUACCACGCCUACUGGAAGCCAGCCGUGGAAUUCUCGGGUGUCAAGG: -0.606
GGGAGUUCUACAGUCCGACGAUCAAGUCCUGUGCUACACAUCGUAUGUACCGAAUCGGUUUGGGGUUUGGGGUUUGGGGAAAGUAUUAUGUUACGCCGUUCGGAUCUGCACUUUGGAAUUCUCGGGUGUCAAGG: -0.269
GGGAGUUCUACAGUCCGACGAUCUAACUUUAGAGGAGGAUCUGAUGGAUAUGGCAGUGGACGUGGAUUUGGGGAUGCCUAUAAUGGGUAUGGAGGAGGACCUGGAGGUGGCAAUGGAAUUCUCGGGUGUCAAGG: -0.189
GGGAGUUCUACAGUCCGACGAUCAGUCCUGUGCUACACAUCGUAUGUACCGAAUCGGUUUGGAAAAAAAGGAAAAAAAGGAAAGUAUUAUGUUACGCCGUUCGGAUCUGCACUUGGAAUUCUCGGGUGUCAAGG: 0.0649
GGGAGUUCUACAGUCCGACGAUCUCCUCAAGUCCUGUGCUACACAUCGUAUGUACCGAAUCGGGCGGCGGGCGGAAAGUAUUAUGUUACGCCGUUCGGAUCUGCACUUCCAGCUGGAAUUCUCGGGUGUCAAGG: -0.258
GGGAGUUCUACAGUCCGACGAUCCCUCAAGUCCUGUGCUACACAUCGUAUGUACCGAAUCGGUGGAAAGGUUUGGAAAGUAUUAUGUUACGCCGUUCGGAUCUGCACUUCCAGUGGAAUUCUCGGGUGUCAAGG: -0.266
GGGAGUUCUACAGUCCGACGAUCCUCAAGUCCUGUGCUACACAUCGUAUGUACCGAAUCGGCGGGGCGGGGCGGGGAAAGUAUUAUGUUACGCCGUUCGGAUCUGCACUUCCAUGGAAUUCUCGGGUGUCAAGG: 0.149
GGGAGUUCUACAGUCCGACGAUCGUCCUGUGCUACACAUCGUAUGUACCGAAUCGGGGUGGGGAAAAAGGGGUUUUUGGGGAAAGUAUUAUGUUACGCCGUUCGGAUCUGCACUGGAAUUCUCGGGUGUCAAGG: 1.03
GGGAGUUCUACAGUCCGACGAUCGCAGGAAGUAAAAACAAAUGGAAAUGCUUCGGAUAGUGGCAGGGGUGGGGGUUGCUAAGGAAAGGGUGGGAUGGGAGUGGGGAAAGAGUUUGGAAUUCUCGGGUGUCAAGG: 0.683
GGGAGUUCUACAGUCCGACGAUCGUCCUGUGCUACACAUCGUAUGUACCGAAUCAAACCCCCAAACCCAAAUUUUUUUAAAAAAGUAUUAUGUUACGCCGUUCGGAUCUGCACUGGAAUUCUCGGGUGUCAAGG: -0.368
